Assay results pooled from the literature.
Compare with care: the assays were run in different laboratories. ± gives the spread as reported.
cathepsin B: cathepsin B (Capra hircus, UniProt A0A452G2V1)
DRD4: D(4) dopamine receptor (DRD4, Homo sapiens, UniProt P21917)
Sequence of UniProt P21917 (whole entry, looked up): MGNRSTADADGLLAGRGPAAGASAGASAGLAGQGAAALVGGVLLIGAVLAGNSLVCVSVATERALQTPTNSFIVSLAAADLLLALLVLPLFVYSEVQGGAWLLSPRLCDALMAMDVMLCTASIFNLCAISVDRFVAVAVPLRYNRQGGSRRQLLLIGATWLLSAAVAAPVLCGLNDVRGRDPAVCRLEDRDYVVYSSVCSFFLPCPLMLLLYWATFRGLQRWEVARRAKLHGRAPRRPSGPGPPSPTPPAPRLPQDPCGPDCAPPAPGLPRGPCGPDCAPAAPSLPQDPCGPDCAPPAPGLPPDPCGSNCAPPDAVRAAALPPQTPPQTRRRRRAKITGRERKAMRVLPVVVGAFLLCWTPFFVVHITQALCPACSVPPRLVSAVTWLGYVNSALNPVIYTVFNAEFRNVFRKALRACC
AGTR2: Type-2 angiotensin II receptor (AGTR2, Homo sapiens, UniProt P50052)
Sequence of UniProt P50052 (whole entry, unmodified, looked up): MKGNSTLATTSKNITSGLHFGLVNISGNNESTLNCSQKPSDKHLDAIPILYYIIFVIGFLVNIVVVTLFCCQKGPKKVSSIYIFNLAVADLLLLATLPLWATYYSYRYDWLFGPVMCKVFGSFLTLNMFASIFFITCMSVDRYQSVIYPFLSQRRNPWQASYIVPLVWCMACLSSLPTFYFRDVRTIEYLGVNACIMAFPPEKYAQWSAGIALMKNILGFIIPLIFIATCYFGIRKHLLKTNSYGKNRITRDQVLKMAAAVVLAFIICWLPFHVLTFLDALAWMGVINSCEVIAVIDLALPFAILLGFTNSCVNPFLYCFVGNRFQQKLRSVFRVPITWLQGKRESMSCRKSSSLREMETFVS
CREBBP KIX domain: CREB-binding protein, KIX domain (CREBBP, Homo sapiens, UniProt Q92793)
Sequence of UniProt Q92793 (whole entry, looked up): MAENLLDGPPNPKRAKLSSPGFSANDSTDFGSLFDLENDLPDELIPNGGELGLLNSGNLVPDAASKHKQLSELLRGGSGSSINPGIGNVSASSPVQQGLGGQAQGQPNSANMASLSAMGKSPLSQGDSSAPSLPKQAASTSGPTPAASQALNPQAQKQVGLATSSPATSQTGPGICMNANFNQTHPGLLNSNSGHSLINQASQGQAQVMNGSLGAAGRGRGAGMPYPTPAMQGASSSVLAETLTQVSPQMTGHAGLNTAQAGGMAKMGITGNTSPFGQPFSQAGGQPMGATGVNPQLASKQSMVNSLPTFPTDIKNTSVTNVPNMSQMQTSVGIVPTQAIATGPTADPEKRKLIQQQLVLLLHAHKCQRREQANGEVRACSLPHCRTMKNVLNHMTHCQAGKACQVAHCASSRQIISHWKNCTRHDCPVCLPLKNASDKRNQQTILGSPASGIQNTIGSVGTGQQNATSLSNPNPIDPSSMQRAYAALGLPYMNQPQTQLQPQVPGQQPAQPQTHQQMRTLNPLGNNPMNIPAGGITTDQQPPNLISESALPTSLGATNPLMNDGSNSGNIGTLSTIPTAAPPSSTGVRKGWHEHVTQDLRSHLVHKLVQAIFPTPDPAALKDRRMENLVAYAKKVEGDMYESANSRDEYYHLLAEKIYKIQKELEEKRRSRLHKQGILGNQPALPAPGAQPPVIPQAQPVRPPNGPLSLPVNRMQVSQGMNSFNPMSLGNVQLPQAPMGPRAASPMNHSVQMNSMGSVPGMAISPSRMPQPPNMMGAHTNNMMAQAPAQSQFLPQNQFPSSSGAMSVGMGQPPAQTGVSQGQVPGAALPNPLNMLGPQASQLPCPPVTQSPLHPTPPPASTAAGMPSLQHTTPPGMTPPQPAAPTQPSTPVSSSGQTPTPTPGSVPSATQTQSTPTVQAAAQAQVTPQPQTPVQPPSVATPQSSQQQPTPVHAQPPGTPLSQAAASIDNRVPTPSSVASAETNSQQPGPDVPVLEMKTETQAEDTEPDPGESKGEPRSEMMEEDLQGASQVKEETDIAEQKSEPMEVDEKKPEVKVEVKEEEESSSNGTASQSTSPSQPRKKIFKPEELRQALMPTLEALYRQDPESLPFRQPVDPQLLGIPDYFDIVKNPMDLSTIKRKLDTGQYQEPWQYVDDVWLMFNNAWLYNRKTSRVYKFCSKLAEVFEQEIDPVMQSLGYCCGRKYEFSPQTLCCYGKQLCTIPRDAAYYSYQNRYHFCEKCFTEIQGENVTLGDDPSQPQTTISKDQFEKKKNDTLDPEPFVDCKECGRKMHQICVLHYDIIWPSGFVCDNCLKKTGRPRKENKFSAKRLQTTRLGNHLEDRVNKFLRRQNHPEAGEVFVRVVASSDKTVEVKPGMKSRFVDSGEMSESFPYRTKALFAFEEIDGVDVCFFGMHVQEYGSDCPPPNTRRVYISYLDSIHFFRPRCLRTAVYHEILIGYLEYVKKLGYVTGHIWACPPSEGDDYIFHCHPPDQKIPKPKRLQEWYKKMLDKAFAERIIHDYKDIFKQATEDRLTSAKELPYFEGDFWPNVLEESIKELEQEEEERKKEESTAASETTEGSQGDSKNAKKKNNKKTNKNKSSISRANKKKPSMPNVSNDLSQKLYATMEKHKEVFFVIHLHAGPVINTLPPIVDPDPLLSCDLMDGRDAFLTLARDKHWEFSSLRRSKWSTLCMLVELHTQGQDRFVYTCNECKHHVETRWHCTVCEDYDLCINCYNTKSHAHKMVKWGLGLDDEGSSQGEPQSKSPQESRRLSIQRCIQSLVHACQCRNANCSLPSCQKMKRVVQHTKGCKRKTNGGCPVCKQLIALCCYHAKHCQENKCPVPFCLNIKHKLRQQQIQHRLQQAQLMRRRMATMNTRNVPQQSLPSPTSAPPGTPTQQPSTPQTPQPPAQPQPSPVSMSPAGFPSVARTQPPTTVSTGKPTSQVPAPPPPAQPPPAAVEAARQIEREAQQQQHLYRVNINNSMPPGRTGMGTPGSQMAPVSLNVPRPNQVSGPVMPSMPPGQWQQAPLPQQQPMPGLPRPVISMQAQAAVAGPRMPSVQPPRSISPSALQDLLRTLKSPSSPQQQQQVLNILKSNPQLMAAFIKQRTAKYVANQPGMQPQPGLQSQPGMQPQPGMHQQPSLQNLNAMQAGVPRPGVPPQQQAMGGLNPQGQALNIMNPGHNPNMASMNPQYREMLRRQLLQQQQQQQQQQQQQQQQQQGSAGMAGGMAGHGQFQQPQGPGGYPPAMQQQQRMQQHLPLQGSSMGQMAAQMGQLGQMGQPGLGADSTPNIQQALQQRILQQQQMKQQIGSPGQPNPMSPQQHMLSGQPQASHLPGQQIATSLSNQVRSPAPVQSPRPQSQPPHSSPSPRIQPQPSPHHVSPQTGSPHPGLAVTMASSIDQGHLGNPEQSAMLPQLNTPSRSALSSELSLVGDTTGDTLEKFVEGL
MAPK1: Mitogen-activated protein kinase 1 (MAPK1, Homo sapiens, UniProt P28482)
Sequence of UniProt P28482 (whole entry, looked up): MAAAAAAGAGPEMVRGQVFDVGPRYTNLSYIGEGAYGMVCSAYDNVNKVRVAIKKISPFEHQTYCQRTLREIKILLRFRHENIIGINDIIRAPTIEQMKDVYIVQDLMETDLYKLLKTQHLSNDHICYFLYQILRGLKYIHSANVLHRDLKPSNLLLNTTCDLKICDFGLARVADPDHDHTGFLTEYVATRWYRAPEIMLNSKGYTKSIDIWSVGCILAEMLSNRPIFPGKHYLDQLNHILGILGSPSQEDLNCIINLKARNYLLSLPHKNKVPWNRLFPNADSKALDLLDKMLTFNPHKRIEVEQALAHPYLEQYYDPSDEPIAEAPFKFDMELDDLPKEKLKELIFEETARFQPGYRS
SCTR: Secretin receptor (SCTR, Homo sapiens, UniProt P47872)
Sequence of UniProt P47872 (whole entry, looked up): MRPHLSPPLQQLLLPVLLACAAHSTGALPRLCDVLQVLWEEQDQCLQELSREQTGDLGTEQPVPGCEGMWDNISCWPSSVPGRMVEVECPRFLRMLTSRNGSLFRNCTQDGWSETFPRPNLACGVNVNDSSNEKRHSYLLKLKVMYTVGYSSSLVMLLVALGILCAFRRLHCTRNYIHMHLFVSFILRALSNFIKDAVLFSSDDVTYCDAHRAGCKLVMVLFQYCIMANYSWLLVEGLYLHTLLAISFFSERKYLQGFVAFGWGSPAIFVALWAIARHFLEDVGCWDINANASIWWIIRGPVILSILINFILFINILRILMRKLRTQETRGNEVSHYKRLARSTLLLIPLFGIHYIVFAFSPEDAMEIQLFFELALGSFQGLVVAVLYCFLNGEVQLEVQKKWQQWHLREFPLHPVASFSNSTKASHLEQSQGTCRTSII
Sequence of UniProt P08397 (whole entry, looked up): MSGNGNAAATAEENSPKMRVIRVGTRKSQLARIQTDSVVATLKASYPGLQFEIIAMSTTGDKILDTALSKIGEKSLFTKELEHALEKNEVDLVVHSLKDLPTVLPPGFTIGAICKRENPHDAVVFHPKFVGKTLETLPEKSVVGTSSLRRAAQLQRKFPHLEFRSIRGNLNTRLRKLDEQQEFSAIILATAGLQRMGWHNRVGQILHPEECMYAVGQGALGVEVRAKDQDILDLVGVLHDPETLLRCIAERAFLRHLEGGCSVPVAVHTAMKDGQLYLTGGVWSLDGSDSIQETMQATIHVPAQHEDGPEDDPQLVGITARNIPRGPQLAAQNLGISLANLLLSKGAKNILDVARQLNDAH
Sequence of UniProt Q6GI75 (whole entry, looked up): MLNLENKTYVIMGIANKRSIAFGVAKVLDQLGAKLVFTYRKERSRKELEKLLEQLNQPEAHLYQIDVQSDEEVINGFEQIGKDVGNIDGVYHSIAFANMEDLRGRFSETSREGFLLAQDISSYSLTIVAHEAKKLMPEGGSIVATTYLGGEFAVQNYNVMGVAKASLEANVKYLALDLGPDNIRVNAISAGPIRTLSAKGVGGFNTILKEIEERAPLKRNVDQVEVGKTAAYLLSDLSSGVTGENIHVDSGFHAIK
Sequence of UniProt P47936 (whole entry, looked up): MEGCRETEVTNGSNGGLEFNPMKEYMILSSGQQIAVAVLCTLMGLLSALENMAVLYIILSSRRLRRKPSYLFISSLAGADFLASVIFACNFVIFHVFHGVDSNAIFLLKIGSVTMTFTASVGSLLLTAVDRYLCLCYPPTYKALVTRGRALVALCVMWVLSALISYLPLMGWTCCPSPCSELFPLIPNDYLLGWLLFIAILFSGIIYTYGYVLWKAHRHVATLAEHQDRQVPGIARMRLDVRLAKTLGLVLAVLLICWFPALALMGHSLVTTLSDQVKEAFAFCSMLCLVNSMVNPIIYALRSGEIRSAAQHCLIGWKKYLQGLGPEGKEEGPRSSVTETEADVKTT

SMILES | target or system | test | test system | conditions | scale | quantity | result
Cc1ccc(NC(=O)CNS(=O)(=O)c2nc(-c3ccc(OC(F)(F)F)cc3)cc(C(F)(F)F)n2)cc1 | Bifunctional 3'-5' exonuclease/ATP-dependent helicase WRN (WRN, Homo sapiens, UniProt Q14191) | DNA unwinding, covalent inhibitor, real-time unwinding |  | 0.5 nM enzyme, together with: 120 µM ATP |  | Ki | 0.032 µM
CCCCCCCCCCCCNC(=O)[C@@H]1CCCN1C(=O)OCc1ccccc1 | Lysosomal Pro-X carboxypeptidase (PRCP, Homo sapiens, UniProt P42785) | enzyme activity, inhibitor |  |  |  | Ki | > 3000 µM
CCC1(CC)C(=O)N(c2cccc(CN3CCc4cc5c(cc4C3)OCO5)c2)C1=O | Dipeptidyl peptidase 8 (Homo sapiens, UniProt Q6V1X1) | enzyme activity, inhibitor, fluorescence |  |  |  | Ki | 0.0027 µM
COc1cccc(/C=C/C(=O)c2ccccc2)c1 | cathepsin B | enzyme activity, competitive inhibitor |  | pH 6.0, purified goat liver enzyme, together with: BANA substrate |  | Ki | 63.2 ± 0.3 µM
CCOC(=O)c1nc2cc(Cl)c(Cl)cc2nc1N1CCN(C(=O)Nc2ccc(N3CCNCC3)cc2)CC1 | Phosphoglycerate kinase 1 (PGK1, Homo sapiens, UniProt P00558) | enzyme activity, noncompetitive versus 3-PG, steady-state kinetics |  | together with: varied 3-PG, saturating ATP |  | Ki | 0.155 ± 0.006 µM
CN(C)[C@@H](CNC(=O)NC[C@H]1Cc2ccccc21)Cc1ccccc1 | DRD4 | ligand displacement, radioligand |  |  |  | Ki | 0.15 µM
O=c1[nH]c(O)nc2c([C@@H]3N[C@H](COP(=O)(O)O)[C@@H](O)[C@H]3O)c[nH]c12 | Hypoxanthine-guanine phosphoribosyltransferase (Homo sapiens, UniProt P00492) | enzyme activity, inhibitor |  | pH 7.4 |  | Ki | > 100 µM
O=C(/C=C/c1ccc(O)c2oc(-c3ccc(O)c(O)c3)cc12)O[C@H](Cc1ccc(O)c(O)c1)C(=O)O | Alpha-glucosidase MAL12 (MAL12, Saccharomyces cerevisiae S288c, UniProt P53341) | enzyme activity, competitive inhibitor, Lineweaver-Burk secondary plot | Saccharomyces cerevisiae |  |  | Ki | 1.5 µM
Cc1cc(O)c(=O)c(O)cc1C(=O)N1CCN(C(=O)c2cccc3ccccc23)CC1 | Ribonuclease H1 (Homo sapiens, UniProt O60930) | enzyme activity, mixed inhibitor, FRET heteroduplex cleavage |  | wild-type, free enzyme, together with: 5 mM Mg2+ |  | Ki | 9.3 ± 8 µM
CCCCOC(=O)NS(=O)(=O)c1sc(CC(C)C)cc1-c1cccc2c1CCN(C(C)=O)C2 | AGTR2 | ligand displacement, radioligand |  | cell membranes |  | Ki | 0.7 µM
CCOC(=O)[C@](CC)(CCCSCCOCCOCCNC(=O)c1ccc(C(=O)[O-])c(C2=C3C=CC(=[N+](C)C)C=C3[Si](C)(C)c3cc(N(C)C)ccc32)c1)NC(=O)c1ccc(C2CC2)c(Cc2ccc(F)cc2)n1 | Cannabinoid receptor 2 (Cnr2, Mus musculus, UniProt P47936) | ligand displacement, radioligand |  | cell membranes |  | Ki | 0.117 µM
CC[C@H](C)[C@H](NC(=O)[C@H](CC(=O)O)NC(=O)[C@H](CO)NC(C)=O)C(=O)N[C@@H](CSCc1ccccc1)C(=O)N[C@@H](CC(=O)O)C(=O)N[C@@H](Cc1ccccc1C)C(=O)N[C@@H](C)C(=O)N[C@@H](CC(C)C)C(=O)N[C@@H](CCCCN)C(=O)N[C@@H](CC(N)=O)C(=O)N[C@@H](Cc1ccc(O)cc1)C(=O)N1CCC[C@H]1C(=O)O | CREBBP KIX domain | binding, competitive inhibitor, fluorescence polarisation |  | together with: fluorescent MLL peptide |  | Ki | > 500 µM
CCOC(=O)NS(=O)(=O)c1sc(CC(C)C)cc1-c1ccc2c(c1)CCN(S(C)(=O)=O)C2 | AGTR2 | ligand displacement, radioligand |  | cell membranes |  | Ki | 0.76 µM
O=C(CN1CCO[C@@H](COc2cccc(Cl)c2)C1)N1CCc2ccccc21 | DRD4 | ligand displacement, radioligand |  |  |  | Ki | < 1 µM
O=C(/C=C/c1ccc(Cl)cc1)c1ccccc1 | cathepsin B | enzyme activity, competitive inhibitor |  | pH 6.0, purified goat liver enzyme, together with: BANA substrate |  | Ki | 66.1 ± 0.3 µM
CC[C@H](C)[C@H](NC(=O)[C@H](C)NC(=O)[C@H](CC(=O)O)NC(=O)[C@H](CSCc1ccccc1)NC(=O)[C@@H](NC(=O)[C@H](CC(=O)O)NC(=O)[C@H](CO)NC(C)=O)[C@@H](C)CC)C(=O)N[C@@H](CC(C)C)C(=O)N[C@@H](CCCCN)C(=O)N[C@@H](CC(N)=O)C(=O)N[C@@H](Cc1ccc(O)cc1)C(=O)N1CCC[C@H]1C(=O)O | CREBBP KIX domain | binding, competitive inhibitor, fluorescence polarisation |  | together with: fluorescent MLL peptide |  | Ki | > 500 µM
COC(=O)[C@]1(Cc2ccccc2)C=C(C(=O)OC(C)(C)C)C(=O)CC1 | MAPK1 | ligand displacement, FP |  |  |  | Ki | 5.9 µM
COc1ccc(/C=C/C(=O)c2ccccc2)cc1 | cathepsin B | enzyme activity, competitive inhibitor |  | pH 6.0, purified goat liver enzyme, together with: BANA substrate |  | Ki | 130 ± 1 µM
CCOC(=O)CNc1nc(-c2ccccc2)cc(C(F)(F)F)n1 | SCTR | increase of tracer binding, TR-FRET | HEK293 membranes | together with: Fluo-Sec 6 nM |  | EC50 | 22 ± 17 µM

SMILES | target or system | test | test system | conditions | scale | quantity | result
CCCc1nc2ccc(N(Cc3ccco3)C(=O)c3ccccc3)cc2c(=O)n1Cc1ccc(-c2ccccc2-c2nnn[nH]2)cc1 | Type-2 angiotensin II receptor (AGTR2, Homo sapiens, UniProt P50052, M128A) | ligand displacement, radioligand |  | cell membranes |  | Ki | 0.0209 µM
CNc1ccccc1C(=O)O[C@H]1[C@@H](O)[C@H](n2ccc(N)nc2=O)O[C@@H]1COP(=O)(O)OP(=O)(O)O | ADCY5 (Canis lupus, UniProt P30803) | adenylyl cyclase activity, inhibitor | Sf9 membranes | together with: 5 mM MnCl2, 100 µM forskolin |  | Ki | 0.74 ± 0.03 µM
CC1(C)C2=C3C=C4C5=[N+](CCC4OC3CCN2c2ccc(S(=O)(=O)[O-])cc21)c1ccc(C(=O)NCCCCOc2ccc(C(=O)CCCN3CCC(O)(c4ccc(Cl)cc4)CC3)cc2)cc1C5(C)C (stereo not shown) | DRD4 | ligand displacement, radioligand |  | cell membranes |  | Ki | 2.8 µM
CCCc1nc2ccc(Nc3ccccc3)cc2c(=O)n1Cc1ccc(-c2ccccc2-c2nnn[nH]2)cc1 | AGTR2 | ligand displacement, radioligand |  |  |  | Ki | 2.99 µM
NCCCCC(NC(=O)OCc1ccccc1)C(=O)O (stereo not shown) | Serine protease 1 (PRSS1, Bos taurus, UniProt P00760) | enzyme activity, inhibitor |  | pH 7.2, 25 °C, 3.3% DMSO, together with: Nα-benzoyl-L-arginine p-nitroanilide |  | Ki | 2810 ± 490 µM
CCCCCCc1ccc(Oc2ccc(Oc3cccc(=O)[nH]3)cc2)c(O)c1 | Enoyl-[acyl-carrier-protein] reductase [NADPH] FabI (Staphylococcus aureus, UniProt Q6GI75) | enzyme activity, inhibitor |  |  |  | Ki | 0.05 µM
NCc1[nH]c(I)c(CCC(=O)O)c1CC(=O)O | Porphobilinogen deaminase (Homo sapiens, UniProt P08397) | enzyme activity, inhibitor |  |  |  | Ki | 5.4 µM
COc1ccccc1/C=C/C(=N\NC(N)=O)c1ccccc1 | cathepsin B | enzyme activity, competitive inhibitor |  | pH 6.0, purified goat liver enzyme, together with: BANA substrate |  | Ki | 9.4 ± 0.05 µM
NS(=O)(=O)Nc1ncnc(OCCOc2ncc(Br)cn2)c1-c1ccc(Br)cc1 |  | refers to: compound formation | Beagle dog male, liver microsomes | 500 mg/kg, 4 weeks | baseline: vehicle | Vmax | 3.3 fold
COc1cccc(/C=C/C(=N/NC(N)=O)c2ccccc2)c1 | cathepsin B | enzyme activity, competitive inhibitor |  | pH 6.0, purified goat liver enzyme, together with: BANA substrate |  | Ki | 17 ± 0.2 µM
C=C1[C@H](O)CC(=C/C=C2\CCC[C@]3(C)[C@@H]([C@@H](C)CCCC)CC[C@@H]23)C[C@H]1O | Vitamin D3 receptor (Rattus norvegicus, UniProt P13053) | binding, radioligand competition |  | together with: radiolabelled 1α,25-dihydroxyvitamin D3 1 nM |  | Ki | 0.0003 µM
CC(C)C[C@H](NC(=O)[C@H](CCCNC(=N)N)NC(=O)[C@H](Cc1ccc(O)cc1)NC(=O)CCCCCCC(=O)N[C@@H](Cc1ccc(O)cc1)C(=O)N[C@@H](CCCNC(=N)N)C(=O)N[C@@H](CC(C)C)C(=O)NN(CCCNC(=N)N)C(=O)N[C@@H](Cc1ccc(O)cc1)C(N)=O)C(=O)NN(CCCNC(=N)N)C(=O)N[C@@H](Cc1ccc(O)cc1)C(N)=O | Neuropeptide Y receptor type 2 (NPY2R, Homo sapiens, UniProt P49146) | ligand displacement, radioligand |  |  |  | Ki | > 5 µM
C/C=C/C[C@@H](C)[C@@H](O)[C@H]1C(=O)N[C@@H](CC)C(=O)N(C)C(Cc2ccc(C(=O)NCCCCCCNC(=O)c3ccc(-c4c5ccc(=[N+](C)C)cc-5oc5cc(N(C)C)ccc45)cc3)cc2)C(=O)N(C)[C@@H](CC(C)C)C(=O)N[C@@H](C(C)C)C(=O)N(C)[C@@H](CC(C)C)C(=O)N[C@@H](C)C(=O)N[C@H](C)C(=O)N(C)[C@@H](CC(C)C)C(=O)N(C)[C@@H](CC(C)C)C(=O)N(C)[C@@H](C(C)C)C(=O)N1C (stereo partly shown) | Peptidyl-prolyl cis-trans isomerase A (Rattus norvegicus, UniProt P10111) | enzyme activity, inhibitor |  | pH 7.5 |  | Ki | 0.213 µM
CCc1nc2ccc(N(Cc3ccccc3)C(=O)c3cccs3)cc2c(=O)n1Cc1ccc(-c2ccccc2-c2nn[nH]n2)cc1 | Type-2 angiotensin II receptor (AGTR2, Homo sapiens, UniProt P50052, R182K) | ligand displacement, radioligand |  | cell membranes |  | Ki | 0.0195 µM
CCOC(=O)C1(C)C=C(C(=O)OC)C(=O)CC1 (stereo not shown) | MAPK1 | ligand displacement, FP |  |  |  | Ki | 172 µM
COc1ccc(-c2cc(C(F)(F)F)nc(S(=O)(=O)CCCC(=O)Nc3ccc(F)cc3F)n2)cc1OC | SCTR | increase of tracer binding, TR-FRET | HEK293 membranes | together with: Fluo-Sec 6 nM |  | EC50 | 6.3 ± 3.8 µM
CCCCOC(=O)NS(=O)(=O)c1sc(CC(C)C)cc1-c1cccc(CN(CC)C(C)=O)c1 | AGTR2 | ligand displacement, radioligand |  | cell membranes |  | Ki | 0.11 µM
COC(=O)[C@]1(C)C=C(C(=O)OC(C)(C)C)C(=O)CC1 | MAPK1 | ligand displacement, FP |  |  |  | Ki | 4.9 µM

Excerpt of the above:
SMILES | target or system | test | test system | conditions | scale | quantity | result
O=C(CN1CCO[C@@H](COc2cccc(Cl)c2)C1)N1CCc2ccccc21 | DRD4 | ligand displacement, radioligand |  |  |  | Ki | < 1 µM
Cc1cc(O)c(=O)c(O)cc1C(=O)N1CCN(C(=O)c2cccc3ccccc23)CC1 | Ribonuclease H1 (Homo sapiens, UniProt O60930) | enzyme activity, mixed inhibitor, FRET heteroduplex cleavage |  | wild-type, free enzyme, together with: 5 mM Mg2+ |  | Ki | 9.3 ± 8 µM
CC1(C)C2=C3C=C4C5=[N+](CCC4OC3CCN2c2ccc(S(=O)(=O)[O-])cc21)c1ccc(C(=O)NCCCCOc2ccc(C(=O)CCCN3CCC(O)(c4ccc(Cl)cc4)CC3)cc2)cc1C5(C)C (stereo not shown) | DRD4 | ligand displacement, radioligand |  | cell membranes |  | Ki | 2.8 µM
COC(=O)[C@]1(C)C=C(C(=O)OC(C)(C)C)C(=O)CC1 | MAPK1 | ligand displacement, FP |  |  |  | Ki | 4.9 µM
